Assay results pooled from the literature.
Numbered parts are unrelated; each lists some results of a single study.

Series 1 — technique: RNAcompete; form: RNA; matrix: in vitro; tested at: 20 nM; setting: 7-mer, probes averaged, single round; relative to: mean of 7-mers; reading: higher = stronger binding
Target: PABPC1L2, full length, GST fusion (mouse, UniProt A0ABA7IW68)
Construct (chain): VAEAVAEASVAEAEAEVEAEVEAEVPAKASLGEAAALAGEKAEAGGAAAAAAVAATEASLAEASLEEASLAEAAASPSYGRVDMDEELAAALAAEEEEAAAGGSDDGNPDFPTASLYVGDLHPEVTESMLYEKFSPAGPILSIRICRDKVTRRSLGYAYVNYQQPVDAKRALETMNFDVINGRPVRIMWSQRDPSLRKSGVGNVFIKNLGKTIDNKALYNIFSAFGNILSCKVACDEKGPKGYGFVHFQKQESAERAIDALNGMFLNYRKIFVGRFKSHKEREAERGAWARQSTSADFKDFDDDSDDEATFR
The 7-mer Z-score of `CGGAUAA` is reported as 0.427.
`AGACUUG` gave a 7-mer Z-score of -0.146.
The 7-mer Z-score of `UUCGACA` is reported as -0.132.
`UGUCCGC` gave a 7-mer Z-score of -0.356.
The 7-mer Z-score of `GGUCAGA` is reported as 0.233.
`UCGGCAA` gave a 7-mer Z-score of 0.0623.
`AUCUCUA` gave a 7-mer Z-score of -0.322.
For `ACUCUGU`, the 7-mer Z-score was -0.215.
With `UCAUGAU` the 7-mer Z-score was -0.219.
`GGGCUGU` gave a 7-mer Z-score of 0.135.
For `ACUUCUC`, the 7-mer Z-score was -0.338.
`ACGUGGA` gave a 7-mer Z-score of 0.191.
For `UAUUGAC`, the 7-mer Z-score was -0.132.
`AAAUACA` gave a 7-mer Z-score of 2.12.
The 7-mer Z-score of `AAACUUA` is reported as 1.13.
The 7-mer Z-score of `GCUUCGU` is reported as -0.411.
The 7-mer Z-score of `AACACUA` is reported as 0.457.
With `GUUCAGG` the 7-mer Z-score was -0.161.
The 7-mer Z-score of `AAUGUCG` is reported as -0.0264.
`UUCAGCA` has a 7-mer Z-score of -0.0663.
The 7-mer Z-score of `UAGCGCG` is reported as -0.231.
The 7-mer Z-score of `UCCCAAU` is reported as -0.333.
With `AUGGUGG` the 7-mer Z-score was 0.128.
The 7-mer Z-score of `GCCACCA` is reported as -0.141.
The 7-mer Z-score of `GUCUUAC` is reported as -0.385.

Series 2 — technique: protein-binding microarray; form: double-stranded DNA, one strand shown; matrix: in vitro; tested at: 2540 nM top; setting: 60-bp whole probe; added: salmon DNA 0.4 mg/ml; relative to: random background probes; reading: higher = stronger binding; shared flanks, not repeated: GCCTAGCAC … GTCTTGATTCGCTTGACGCTGCTG
Target: Interferon regulatory factor 3, full length, phosphomimetic (IRF3, Homo sapiens, UniProt Q14653, residues 1-427, S386D/S396D/S398D/S402D/T404D/S405D)
Construct (chain): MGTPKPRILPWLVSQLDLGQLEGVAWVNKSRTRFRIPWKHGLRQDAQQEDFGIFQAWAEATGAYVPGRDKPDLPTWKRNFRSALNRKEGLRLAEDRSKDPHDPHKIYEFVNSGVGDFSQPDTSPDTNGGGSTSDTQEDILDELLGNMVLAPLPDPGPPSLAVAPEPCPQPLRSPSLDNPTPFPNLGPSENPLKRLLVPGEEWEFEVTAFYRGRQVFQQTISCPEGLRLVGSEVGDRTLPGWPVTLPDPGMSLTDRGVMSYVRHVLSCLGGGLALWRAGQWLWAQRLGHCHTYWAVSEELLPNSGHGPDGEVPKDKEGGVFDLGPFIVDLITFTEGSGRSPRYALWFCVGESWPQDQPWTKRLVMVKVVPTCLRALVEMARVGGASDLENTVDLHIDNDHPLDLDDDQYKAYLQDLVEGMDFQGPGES
Under “fitted relative affinity”, `TTAGGTTTTGGGTTTCGGTTAGTGCTA` is recorded as 3.36 z-score.
`TCATTTTTCACCTGCACACTGTGCTAG`: “fitted relative affinity” 1.58 z-score.
`TCATGACTCTTTCTGTCACTGTGCTAG` — result for “fitted relative affinity”: 0.528 z-score.
Under “fitted relative affinity”, `TCATTTCTATGTCTGTTACTGTGCTAG` is recorded as 2.18 z-score.
Under “fitted relative affinity”, `TCATATATGTGTATATAACTGTGCTAG` is recorded as 0.595 z-score.
`GACGATTTCAGCCTCGAGACGTGCTAG`: “fitted relative affinity” 0.668 z-score.
Under “fitted relative affinity”, `TCACTTAGGTTTTCTGGTACTGTGCTA` is recorded as 0.119 z-score.
`GCTCATCTGTCATGTTTGTCAGTGCTA`: “fitted relative affinity” 0.53 z-score.
Under “fitted relative affinity”, `TCAACTTTCCAAAGCGTACTGTGCTAG` is recorded as 2.82 z-score.
For `TGAGGTATCGGTTTCGGTTAGTGCTAG`, “fitted relative affinity” read 8.22 z-score.
For `TTAGATATCAGCATCGATTAGTGCTAG`, “fitted relative affinity” read -0.0105 z-score.
`TTAGGACTGGACACTGGGTCAGTGCTA` — result for “fitted relative affinity”: -0.917 z-score.
Under “fitted relative affinity”, `TTAGATTCCAGTTTCAATTAGTGCTAG` is recorded as 3.8 z-score.
For `TTTTTTTTCTACTTCTGTTTGTGCTAG`, “fitted relative affinity” read 2.33 z-score.
Under “fitted relative affinity”, `TTAGATATCAGACTGGAATAGTGCTAG` is recorded as 0.0894 z-score.
`TATTGTGCAATTAGAGCCCTGTGCTAG`: “fitted relative affinity” 0.0756 z-score.
`TACGATTTCAGACTGGAGACGTGCTAG` — result for “fitted relative affinity”: 0.625 z-score.
For `TCAGATTTTCCCATGAGACTGTGCTAG`, “fitted relative affinity” read 0.499 z-score.
Under “fitted relative affinity”, `TTAGGTATCGGATATCGGTTAGTGCTA` is recorded as 2.55 z-score.
`GACAAACTGAGTTTCGAGACGTGCTAG` — result for “fitted relative affinity”: 1.3 z-score.
`GCATCGTAAGCAAAAATGATGTGCTAG` — result for “fitted relative affinity”: 0.0318 z-score.
`TTAGGTTTCGGGTAACGGTTAGTGCTA`: “fitted relative affinity” 3.42 z-score.
For `GACGGTATCCTTCTCCGGACGTGCTAG`, “fitted relative affinity” read 7.42 z-score.
For `TTAGGTATACTTCTCCTTTAGTGCTAG`, “fitted relative affinity” read 1 z-score.

Series 3 — technique: aptamer microarray, sandwich; form: DNA with 2'F-ANA; matrix: in vitro; tested at: 200 nM; added: Cy3 exosite-II aptamer, 400 nM; reading: higher = stronger binding; strand: GGTTGGTGTGGTTGG
Target: Prothrombin, mature alpha-thrombin (F2, Homo sapiens, UniProt P00734)
Setting: whole 15-mer aptamer, many near background
For `2'F-ANA at 1 3 5 7 12`, “mean fluorescence intensity” read 132 a.u.
Under “mean fluorescence intensity”, `2'F-ANA at 1 2 4 6 7 8 10 14 15` is recorded as 47.2 a.u.
Under “mean fluorescence intensity”, `2'F-ANA at 1 4 5 6 7 9 12` is recorded as 96.9 a.u.
`2'F-ANA at 1 2 5 6 7 8 12 13`: “mean fluorescence intensity” 87.6 a.u.
Under “mean fluorescence intensity”, `2'F-ANA at 2 3 4 5 7 8 9 10 13` is recorded as 50.8 a.u.
Under “mean fluorescence intensity”, `2'F-ANA at 3 7 8 10 13` is recorded as 577 a.u.
For `2'F-ANA at 2 3 4 7 9 10 13 14 15`, “mean fluorescence intensity” read 186 a.u.
Under “mean fluorescence intensity”, `2'F-ANA at 1 2 3 4 5 6 7 11 14` is recorded as 49.6 a.u.
`2'F-ANA at 1 2 3 4 6 8 10 11`: “mean fluorescence intensity” 61 a.u.
For `2'F-ANA at 1 3 5 9 12 13`, “mean fluorescence intensity” read 92.6 a.u.
Under “mean fluorescence intensity”, `2'F-ANA at 2 3 4 5 15` is recorded as 98.8 a.u.
For `2'F-ANA at 2 5 7 9 14`, “mean fluorescence intensity” read 44.2 a.u.
`2'F-ANA at 1 4 7 9 10 12 13 14 15`: “mean fluorescence intensity” 46.8 a.u.
For `2'F-ANA at 2 5 8 9 11 14`, “mean fluorescence intensity” read 50.7 a.u.
Under “mean fluorescence intensity”, `2'F-ANA at 1 2 3 4 7 8 10 11 14 15` is recorded as 52.7 a.u.
`2'F-ANA at 3 5 7 8 9 12`: “mean fluorescence intensity” 331 a.u.

Series 4 — technique: RNA Bind-n-Seq; form: RNA; matrix: in vitro; tested at: 365 nM; relative to: no-protein control; reading: higher = stronger binding
Target: RNA binding protein fox-1 homolog 2, RRM domain, GST-SBP tag (RBFOX2, Homo sapiens, UniProt O43251-10, residues 100-194)
Setting: natural RNA segment, single round, ends assumed
Shared flanks, not repeated: GGGAGUUCUACAGUCCGACGAUC … UGGAAUUCUCGGGUGCCAA
Residues (chain): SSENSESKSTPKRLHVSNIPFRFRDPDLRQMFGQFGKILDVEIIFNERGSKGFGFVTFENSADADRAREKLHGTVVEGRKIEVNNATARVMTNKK
`CCUGGGAGACAAGAGCAUUACCCAGCUUGGCUUUCACGGGGGAGGGUUGUAUUCAGUAAAAAAGAAUAGUAAAUAUAAGGUCACUGAGAUUCUAAGUAAGAUAGUAAAUC` — result for “RBNS enrichment (R)”: 2.96.
Under “RBNS enrichment (R)”, `CUUGCCUUGAUCCUGUUGUGGCAGUGUCUGUUCCUGCCCCAGGUGUGCUAUUCACGCAGGUUUAUUCCCUCCAUGGCCUCCGGGCUUUGCAUGUCUAUGAUGUGUGUGUC` is recorded as 4.9.
`GUCCAUAGGCCACCAAUUCUCCUUGCGCUGCUCAGGCCUUCUCUCACCAGAUGGGCUUCCAUUCACCUUCGGACCCAGGGCCUCCAAGCCACACAGCUAUUCUUUGGCCA`: “RBNS enrichment (R)” 0.573.
`CAUUCUCUUCCAGUUCUGUGGUAUUGUCCAAGAAUGUAUCAAUAAAAUACUUUGGUUAACUUUUUUAUUUUCUGUAGUAAGUGCUUUAGUUGUUCUCCCCAGCCCACCCU`: “RBNS enrichment (R)” 0.336.
Under “RBNS enrichment (R)”, `GCUCAAACCAUUAAGGGUUAAAAAUACAUCUUAAACAUUGGAAAGCUCUUCUAGCUGAAUCUGAAAUAUUACCCCUUGUCUAGAAAAAGGGGGGCAGUCAGAACAGCUGU` is recorded as 0.333.
For `UAGUUUUCAGUUGCUGAAGUAGCUCAUUUUCUCUUACUAAUGUUUGGUUCCUCAGGGAAGAAUCUCACUUGACUAGAGAGGAGGUGGGAACAGAAGAGAGAAGGAGGCAG`, “RBNS enrichment (R)” read 0.498.
`AUAUCUCUGUAAAAACAAACACUGUAACUUCUAAAUAAAUGUUUAGUCUUCCUUGUAACCUUCAUCUAGUCACGAGUGAGUCAGCGUUUUCUUUAGACGUCCGGCGUCCC`: “RBNS enrichment (R)” 0.185.
`GCCUGAGACACAUGGAGAGUUGGUCAGGCUGCUGCUGGGAGAAAUGGACGCCCACUGGGCCUCAACUUGAUCUUCUACCCCGUGCCUGUGACUCAGACUGGGAAAUACUG` — result for “RBNS enrichment (R)”: 0.397.
`CCUCUAGGCAUGAAGCCUUCCAGGGGCCGGGAUGGUAGGGAGUUUCACCCCUUCCUCCCUCCCCAAGCCUGCAAACCACCUUUGCUUUCAUUCCUUUCUCUGCGCCUGCC` — result for “RBNS enrichment (R)”: 0.591.
`ACCUAGUUUUCAUUGUUGACAAGUGAGGCCAGGCUUCCACUCGACCAAAAGCUAAGGAUUGCCACCCAGCAUUCCAAGCAGACUUGUUUCCUAAAAGCAUCCUUCAUCUG`: “RBNS enrichment (R)” 0.42.
`AAGACCCCCAUCGCUACAAAAAAUACAAAAGUUAGCCAGGUACAGUAGUACACACCUGUAGUCCAAGCUACUUGGGAGGCUGAAGUGGGAGGAUCAUUUGUGCCCAGGUU`: “RBNS enrichment (R)” 0.78.
Under “RBNS enrichment (R)”, `AACUGUAUAGUGUACAUGGUAAUGAUUUAUUGCUAUGCCCCAGAUCCUUAAUGUAGUUCUCAUCCUCCGCAUGCCCUCAGCCACAAGCGGGUGACUGACUGUUCCCUGAU` is recorded as 4.28.

Series 5 — technique: universal PBM; form: double-stranded DNA, one strand shown; matrix: in vitro; tested at: 600 nM; reading: higher = stronger binding
Target: Sal-like protein 4, full length isoform A (SALL4, Homo sapiens, UniProt Q9UJQ4, residues 1-1053)
Chain of UniProt Q9UJQ4 (whole entry, looked up): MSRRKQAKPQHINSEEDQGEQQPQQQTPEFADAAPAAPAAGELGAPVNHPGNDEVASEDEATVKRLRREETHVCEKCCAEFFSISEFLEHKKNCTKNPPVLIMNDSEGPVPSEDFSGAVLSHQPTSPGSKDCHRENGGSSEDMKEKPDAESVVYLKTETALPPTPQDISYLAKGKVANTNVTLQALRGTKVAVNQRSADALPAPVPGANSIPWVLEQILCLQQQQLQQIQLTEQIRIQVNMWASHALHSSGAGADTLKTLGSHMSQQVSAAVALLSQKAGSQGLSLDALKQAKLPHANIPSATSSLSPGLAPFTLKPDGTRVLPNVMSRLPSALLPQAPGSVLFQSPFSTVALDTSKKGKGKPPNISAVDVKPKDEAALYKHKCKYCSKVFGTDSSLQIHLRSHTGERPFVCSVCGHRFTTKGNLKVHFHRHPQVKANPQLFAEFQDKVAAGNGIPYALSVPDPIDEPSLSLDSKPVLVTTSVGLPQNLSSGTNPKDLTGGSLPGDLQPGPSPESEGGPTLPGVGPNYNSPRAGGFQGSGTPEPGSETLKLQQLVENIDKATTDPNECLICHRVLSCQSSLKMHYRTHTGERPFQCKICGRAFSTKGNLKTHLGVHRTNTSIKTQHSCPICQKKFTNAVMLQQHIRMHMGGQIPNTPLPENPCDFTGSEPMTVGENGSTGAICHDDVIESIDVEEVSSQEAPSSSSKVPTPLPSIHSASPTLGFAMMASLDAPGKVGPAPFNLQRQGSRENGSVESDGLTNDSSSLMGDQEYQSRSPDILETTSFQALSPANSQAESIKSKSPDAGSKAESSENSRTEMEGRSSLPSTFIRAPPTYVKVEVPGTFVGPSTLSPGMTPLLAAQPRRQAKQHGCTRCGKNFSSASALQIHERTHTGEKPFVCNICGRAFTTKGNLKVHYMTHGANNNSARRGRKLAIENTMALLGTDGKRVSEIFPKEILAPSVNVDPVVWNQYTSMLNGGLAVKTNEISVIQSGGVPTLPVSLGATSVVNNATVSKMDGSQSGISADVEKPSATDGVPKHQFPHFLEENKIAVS
Setting: 8-mer, flanks averaged, mean of replicates
For `CAATAACA`, the E-score was 0.252.
`CCAAAAGA` has an E-score of 0.215.
With `GACATGCA` the E-score was 0.0409.
The E-score of `AACCAGAA` is reported as 0.042.
For `CTGACAGA`, the E-score was 0.0481.
The E-score of `CCCTGTTA` is reported as 0.0921.
`CTAGCAGC` gave an E-score of -0.17.
The E-score of `CCAGCTCA` is reported as -0.128.
The E-score of `AGGCATAC` is reported as -0.00971.
The E-score of `GATATAGC` is reported as 0.195.
The E-score of `ATGGTGAG` is reported as -0.0307.
With `GATGGAGA` the E-score was -0.0537.
The E-score of `AATGAAAA` is reported as 0.316.
The E-score of `CGTTAGAC` is reported as 0.055.
The E-score of `GACCGCCC` is reported as -0.266.
The E-score of `AAAAAGTT` is reported as 0.235.
For `ACCCACAT`, the E-score was 0.124.
`CTATCTCC` gave an E-score of -0.0411.
